Measured values of several laboratories.
Lines come from different studies, so protocols differ. ± gives the spread as reported.

N=C(N)NCCC[C@H](NC(=O)[C@H](CCCNC(=N)N)NC(=O)[C@H](CCCCN)NC(=O)[C@H](CCC(N)=O)NC(=O)[C@H](CCCCN)NC(=O)[C@H](Cc1ccc(O)cc1)NC(=O)[C@@H](N)CCCCN)C(=O)N[C@@H](CO)C(=O)N[C@@H](Cc1ccc(O)cc1)C(=O)N[C@@H](CCCCN)C(=O)O — change in VAS score (human, dentin hypersensitivity patients; topical to tooth, 5 µg/tooth repeated, day 36, phase 1/2a trial, higher-VAS tooth, together with: cold water at 4°C; direction not given): -29.4 ± 27.7 mm
c1ccc(-c2n[nH]cc2-c2ccnc3ccccc23)nc1 — log2 fold change (kinase binding, competitor, MIB/MS competition, refers to: NPR1; Candida albicans cell lysate; 10 µM; baseline: DMSO): 1.4
C[C@H]1C[C@H]2CSC(N)=N[C@@]2(c2nc(NC(=O)c3ccc(OC(F)F)cn3)cs2)CO1 — percent change from baseline (refers to: total Aβ; healthy adults, plasma; 200 mg single dose, 24 h post-dose; baseline: placebo): -64.2%
CCN1CCN(Cc2ccc(Nc3ncc(F)c(-c4cc(F)c5nc6n(c5c4)[C@H](C)CCC6)n3)nc2)CC1 — non-CR/non-PD (human advanced solid tumours; 50 mg, phase Ia monotherapy RECIST 1.1): 0%
CN[C@@H]1COc2c(S(=O)(=O)NC(=O)Nc3c4c(cc5c3CCC5)CCC4)cnn2C1 — inhibition (refers to: IL-1β; human participants, whole blood ex vivo; 900 mg twice daily, multiple doses, 144 h, together with: LPS/ATP; baseline: baseline): 99.4%
NCC(=O)Nc1cncc(-c2nn3c(=O)cc(N4CCNCC4)nc3s2)c1 — median inhibition (ADP-induced platelet aggregation, light transmission aggregometry; human, stable CAD on aspirin, platelets ex vivo; subcutaneous, 0.075 mg/kg, 15 min post-dose, together with: ADP 20 µM): 90.1%
COc1c(O)c(C)cc2c1C(=O)c1c(cc(O)c(O)c1O)C2=O — viability (HK-2 co-cultured with HepaRG; MTT; 266.67 µM, 48 h; baseline: untreated control): 47.3 ± 12.7%
N#Cc1ccn2c(-c3ccncc3)c(-c3ccc(F)cc3)nc2c1 — log2 fold change (kinase binding, competitor, MIB/MS competition, refers to: TPK2; Candida albicans cell lysate; 10 µM; baseline: DMSO): -0.0553
Cn1cc(-c2ccc(-c3cncc(Cl)c3N3CCC4(CCNC4=O)CC3)cc2)cn1 — log2 fold change (COLO 205; gene expression, microarray, refers to: NUF2 mRNA; concentration not given, 6 h; baseline: untreated cells): -2.22
CC(C)NCC(O)c1ccc(O)c(O)c1 (centres unmarked) — sarcomere length (ventricular cardiomyocytes, C57BL/6 mouse; dose not given, 0.108 s): 1.72 µm
OC(CCN1CCCCC1)(c1ccccc1)C1CC2C=CC1C2 (centres unmarked) — power, Delta EEG, Pz-O1 (resting-state EEG; healthy elderly humans; oral, 2 mg, eyes open, LS mean): 7 µV²
O=C(O)CNC(=O)Cc1ccccc1 — sarcomere length (ventricular cardiomyocytes, C57BL/6 mouse; dose not given, 0.088 s): 1.72 µm
CC(C)C[C@H](NC(=O)C[C@H](O)[C@H](CC(C)C)NC(=O)[C@H](Cc1c[nH]cn1)NC(=O)CNC(=O)[C@@H](NC(=O)[C@H](C)NC(=O)[C@H](Cc1c[nH]c2ccccc12)NC(=O)[C@H](CCC(N)=O)NC(=O)[C@@H](Cc1ccccc1)NC(=O)COCCOCCNC(=O)CCC(C(=O)O)N1CCN(CC(=O)O)CCN(CC(=O)O)CCN(CC(=O)O)CC1)C(C)C)C(N)=O (some centres unmarked) [lutetium-177 labelled] — tissue uptake (BALB/c nu/nu mice, muscle; intravenous, 250 pmol, 1 h, together with: PA 300 µg): 0.15 ± 0.05 %ID/g
Cc1cc(O)c2c(c1)C(=O)c1cccc(O)c1C2=O — viability (HK-2 co-cultured with HepaRG; MTT; 133.33 µM, 48 h; baseline: untreated control): 48.3 ± 18%
